Published values collected from several papers.
± marks the error that the study gave.

| Structure (SMILES) | cell line | assay | setting | how to read | endpoint | value |
| --- | --- | --- | --- | --- | --- | --- |
| COc1cc(CNC(=O)C[C@H](C)CCC=C(C)C)ccc1OCc1cn(-c2ccccc2Cl)nn1 | NCI-H522 | SRB | 10 µM, 48 h |  | growth percent | 51.4% |
| COC(=O)CCNC(=O)CNC(=O)CCn1nc(Cc2ccccc2)c2ccccc2c1=O | HCT-116 |  | concentration not given |  | G2 phase cells | 20.4% |
| C=CC(=O)Nc1cccc(-c2cnc3[nH]cc(C(=O)NC(C)(C)C)c3n2)c1 | NK-S1 | item: phospho-STAT3/5 | 1.0 µM, pre-treated 2 h |  | time to full inhibition after washout | 4 h |
| CC(=O)N1CCC[C@H]1C(=O)N[C@@H](CC/C=C/C(=O)N(C)C)C(=O)N[C@@H](CCNC(=O)CCCCCN1C(=CC=CC=CC2=[N+](C)c3ccc(S(=O)(=O)[O-])cc3C2(C)C)C(C)(C)c2cc(S(=O)(=O)O)ccc21)C(=O)N1CCC[C@H]1C(=O)N[C@@H](Cc1ccccc1)C(N)=O | NRK cells | item: RFP-LAMP-1 | 90 min, with: α2-macroglobulin |  | Pearson colocalization coefficient | 0.426 |
| C=CC(=O)N1CCCC(n2c(=O)c3ncccc3n(Cc3ccc(Oc4ccccc4)cc3)c2=O)C1 (stereo not shown) | RPMI-8226 carfilzomib-resistant | cell proliferation, MTT |  | baseline: resistant over parental | sensitivity ratio | 4 fold |
| CC/C=C\C/C=C\C/C=C\C/C=C\C/C=C\C/C=C\CCC(=O)Nc1ccn(C2OC(CO)C(O)C2(F)F)c(=O)n1 (stereo not shown) | OVCAR-4 | NCI60 screen |  |  | TGI | 28.8 µM |
| C[C@H](NC(=O)[C@H](CCC(N)=O)NC(=O)[C@H](Cc1c[nH]c2ccccc12)NC(=O)[C@@H](N)CCCNC(=N)N)C(=O)N[C@@H](CCCNC(=N)N)C(=O)N[C@@H](Cc1c[nH]c2ccccc12)C(=O)N[C@@H](CCC(N)=O)C(=O)N[C@@H](Cc1c[nH]c2ccccc12)C(=O)N[C@@H](CCCNC(=N)N)C(N)=O | young human fibroblasts primary | MTT | concentration not given, 48 h, 37 °C, 5% FBS | baseline: untreated cells | viability | 66 ± 2% |
| CCCC(CCC)C(=O)[O][Pt]([NH2])([NH2])([Cl])([Cl])[O]C(=O)C(C)c1ccc(CC(C)C)cc1 (stereo not shown) | six human cancer lines | cytotoxicity, MTT |  | baseline: cisplatin | IC50 fold lower | ~10 fold |
| O=Cc1c(O)ccc2ccccc12 | HUVEC | RNA sequencing, item: AOC2 | 75 µM, 24 h | baseline: DMSO | log2 fold change | 2.63 |
| COc1cc2c(C=C3C(=O)Nc4ccccc43)c[nH]c2cc1C | prostate cancer subpanel of NCI-60 |  | 48 h |  | TGI | 12.9 µM |
| Nc1nc2cc(CC[C@H]3C[C@@H](n4ccc5c(N)ncnc54)[C@H](O)[C@@H]3O)ccc2cc1Br | NCI-H520 | cell growth or viability, MTT | 6 days |  | GI50 | 0.0004 µM |
| CCC(=C(c1ccc(Cl)cc1)c1ccc(OCCCN(C)C)cc1)c1ccc(OC)cc1 | OVCAR-4 | cell growth or viability |  |  | GI50 | 5.25 µM |
| C=CC(OC(C)=O)c1ccc(OC(C)=O)c(OC)c1 (stereo not shown) | MDA-MB-231 | Western blot | IC50, 24 h | baseline: untreated | cleaved PARP level | 4.8 fold |
| CO[C@H]1O[C@H](COC(c2ccccc2)(c2ccccc2)c2ccccc2)[C@@H](OS(=O)(=O)c2ccccc2)[C@H](OS(=O)(=O)c2ccccc2)[C@H]1OS(=O)(=O)c1ccccc1 | Ehrlich | cell growth or viability, MTT | 250 µg/mL, 24 h |  | inhibition | 8.31% |
| COc1cc(CNC(=O)C[C@H](C)CCC=C(C)C)ccc1OCc1cn(-c2ccccc2F)nn1 | NCI/ADR-RES | SRB | 10 µM, 48 h |  | growth | 54.8% |
| CC(=O)OC[C@H]1O[C@@H](Sc2sc(C(=O)c3ccc(C)cc3)c(N)c2-c2nc3ccccc3s2)[C@H](OC(C)=O)[C@@H](OC(C)=O)[C@@H]1OC(C)=O | Malme-3M | SRB | 10 µM, 48 h | baseline: untreated | growth | 43.9% |
| CCn1nc2c(c1Nc1nc(-c3ccc(-n4cnc(C)c4)c(OC)n3)cs1)CCCC2 | SH-SY5Y-APP | sandwich ELISA | 100 pM to 10 µM, 24 h |  | total amyloid beta level | no effect |
| C[N+](C)(C)c1ccc(C2NC(c3ccc([N+](C)(C)C)cc3)C34c5c6c7c8c9c%10c(c%11c%12c3c3c5c5c%13c6c6c7c7c9c9c%14c%10c%10c%11c%11c%12c%12c3c3c5c5c%13c%13c6c6c7c9c7c9c%14c%10c%10c%11c%11c%12c3c3c5c5c%13c6c7c6c9c%10c%11c3c56)C824)cc1 (stereo not shown) | BC-3 | cell growth or viability | 24 h |  | CC50 | 20.6 µM |
| COc1ccc(NC(=O)N/N=C2\CC3(CCN(C)CC3)Oc3ccccc32)cc1 | HCT-116 | annexin V-FITC/PI | concentration not given, 24 h |  | necrotic cells | 3.72% |

| Structure (SMILES) | cell line | assay | setting | how to read | endpoint | value |
| --- | --- | --- | --- | --- | --- | --- |
| COc1cc(CNC(=O)C[C@H](C)CCC=C(C)C)ccc1OCc1cn(-c2ccccc2[N+](=O)[O-])nn1 | SNB-75 CNS cancer cells | SRB | 10 µM, 48 h |  | growth percent | 56.6% |
| Cc1c(C)c(C)[c-](C)c1C.[C-]#[O+].[C-]#[O+].[C-]#[O+].[Cl-].[Cl-].[Cl-].[Ir+3].[Re+].c1cnc(-c2ncccn2)nc1 | MDA-MB-468 | PI flow cytometry | 50 µM |  | S-phase cells | 22.1% |
| CSc1nc(Nc2ccc(/C(C)=N/NC(=O)c3ccc([N+](=O)[O-])cc3[N+](=O)[O-])cc2)c(C#N)c(-c2ccccc2)n1 | HCT-116 | flow cytometry | concentration not given | baseline: untreated control | sub-G1 phase cells | 7.91 fold |
| COc1cc([C@@H]2c3cc4c(cc3[C@@H](OCc3cc(-c5ccc(C)cc5)no3)[C@H]3COC(=O)C23)OCO4)cc(OC)c1OC (stereo partly shown) | MIA PaCa-2 | cell growth or viability, SRB | 48 h |  | GI50 | 3.22 µM |
| O=C(Cn1c(=O)c(Cc2ccccc2)nc2ccccc21)NN1C(=O)c2ccccc2C1=O | HCT-116 | qRT-PCR, item: VEGF | concentration not given, 72 h | baseline: untreated | mRNA level | 0.512 ± 0.011 fold |
| CC(Cc1ccc(Cl)cc1)=C(c1ccc(Cl)cc1)c1ccc(OCCN(C)C)cc1 | Malme-3M | cell growth or viability, SRB |  |  | GI50 | 3.68 µM |
| Cc1cc(/C=C/c2ccc(O)c(O)c2)[nH]n1 | CHO | DCF-DA | 10 µM, 2 h pretreatment, read 30 min post-irradiation, with: 2 Gy radiation | baseline: irradiated control | reduction in ROS level | 43% |
| C[C@H](NC(=O)[C@H](Cc1c[nH]c2ccccc12)NC(=O)[C@@H](N)CCCNC(=N)N)C(=O)N[C@@H](Cc1c[nH]c2ccccc12)C(=O)N[C@@H](CCCNC(=N)N)C(=O)N[C@@H](Cc1c[nH]c2ccccc12)C(=O)N[C@@H](CCC(N)=O)C(=O)N[C@@H](Cc1c[nH]c2ccccc12)C(=O)N[C@@H](CCCNC(=N)N)C(N)=O | young human fibroblasts primary | MTT | concentration not given, 48 h, 37 °C, 5% FBS | baseline: untreated cells | viability | 86 ± 4% |
| NS(=O)(=O)c1ccc(-n2cc(Cn3c(=O)c(Cc4ccccc4)nc4ccccc43)nn2)cc1 | HCT-116 | qRT-PCR, item: BCL-2 | concentration not given, 72 h | baseline: untreated | mRNA level | 0.347 ± 0.013 fold |
| O=C(CSc1nc2ccccc2s1)Nc1nonc1[N+](=O)[O-] | Ramos | LFQ mass spectrometry | 10 µM, 8 h |  | downregulated proteins | 269 count |
| Cc1ccc(C(C)C)cc1.O=C(N=P(c1ccccc1)(c1ccccc1)c1ccccc1)c1ccccn1.[Cl-].[Cl][Ru+] | MDA-MB-231 and HCC1806 | western blot, item: M-CSF | IC20, 24 h |  | protein level | decreased |
| COc1cc(CNC(=O)C[C@H](C)CCC=C(C)C)ccc1OCc1cn(-c2ccc([N+](=O)[O-])cc2)nn1 | NCI-H522 | SRB | 10 µM, 48 h |  | growth percent | 58.9% |
| CCN(CC)CC(=O)Nc1cccc(-n2cc(-c3ccc4ccc(-c5cn(-c6cccc(NC(=O)CN(CC)CC)c6)nn5)cc4c3)nn2)c1 | 786-0 cells | Western blot | 10 x IC50, 4 h, hypoxia | baseline: untreated | HIF-2α protein level | 37% |
| COc1ccc([C@@H]2CC(=O)c3c(O)cc(O[C@@H]4O[C@H](CO[C@@H]5O[C@@H](C)[C@H](O)[C@@H](O)[C@H]5O)[C@@H](O)[C@H](O)[C@H]4O)cc3O2)cc1O | A549 | cell growth or viability, MTS | 50 µg/mL, 48 h |  | viability | 60.9% |
| COc1cc(CNC(=O)C[C@H](C)CCC=C(C)C)ccc1OCc1cn(-c2cccc(C(F)(F)F)c2)nn1 | SNB-75 CNS cancer cells | SRB | 10 µM, 48 h |  | growth percent | 65.2% |
| Cn1cc(-c2cc(N3CCCCS3(=O)=O)ccc2N[C@H]2CC[C@H](C)CC2)c2cc[nH]c2c1=O (stereo in doubt) | COLO-680N | cell growth or viability, CCK-8 | 72 h |  | GI50 | 4 µM |
| O=Cc1ccc(C(F)F)o1 | human sickle cell (SS) red blood cells |  | 2 mM | baseline: 5-HMF | antisickling activity fold improvement | ~2.3 fold |
| CC(=O)OC[C@H]1O[C@@H](Sc2sc(C(=O)c3ccc(Br)cc3)c(N)c2-c2nc3ccccc3s2)[C@H](OC(C)=O)[C@@H](OC(C)=O)[C@H]1OC(C)=O | UO-31 | SRB | 10 µM, 48 h | baseline: untreated | growth | 61.4% |

Some of these lines once more:
| Structure (SMILES) | cell line | assay | setting | how to read | endpoint | value |
| --- | --- | --- | --- | --- | --- | --- |
| COc1cc([C@@H]2c3cc4c(cc3[C@@H](OCc3cc(-c5ccc(C)cc5)no3)[C@H]3COC(=O)C23)OCO4)cc(OC)c1OC (stereo partly shown) | MIA PaCa-2 | cell growth or viability, SRB | 48 h |  | GI50 | 3.22 µM |
| O=C(Cn1c(=O)c(Cc2ccccc2)nc2ccccc21)NN1C(=O)c2ccccc2C1=O | HCT-116 | qRT-PCR, item: VEGF | concentration not given, 72 h | baseline: untreated | mRNA level | 0.512 ± 0.011 fold |
| CC(Cc1ccc(Cl)cc1)=C(c1ccc(Cl)cc1)c1ccc(OCCN(C)C)cc1 | Malme-3M | cell growth or viability, SRB |  |  | GI50 | 3.68 µM |
| Cc1cc(/C=C/c2ccc(O)c(O)c2)[nH]n1 | CHO | DCF-DA | 10 µM, 2 h pretreatment, read 30 min post-irradiation, with: 2 Gy radiation | baseline: irradiated control | reduction in ROS level | 43% |
